Measurements gathered from unrelated publications.
Numbered parts are unrelated; each lists some results of a single study.

Set 1 — method: RNA Bind-n-Seq; molecule type: RNA; sample: in vitro; tested at: 20 nM; setting: 6-mer, flanks averaged, single round; added: 150 mM LiCl; reference: input library; reading: higher = stronger binding
Target: TAR DNA-binding protein 43, full length, His tag (TARDBP, Homo sapiens, UniProt Q13148, residues 1-414)
`ACGGUU`: “6-mer enrichment (R)” 0.905.
`GCGAAG`: “6-mer enrichment (R)” 0.975.
For `UAAUGG`, “6-mer enrichment (R)” read 1.02.
`UUUUUU`: “6-mer enrichment (R)” 1.95.
For `UUUGUG`, “6-mer enrichment (R)” read 1.7.
Under “6-mer enrichment (R)”, `UAAAGG` is recorded as 0.924.
`UCACCA`: “6-mer enrichment (R)” 0.894.
For `AGGGUC`, “6-mer enrichment (R)” read 0.954.
`UAUAGC`: “6-mer enrichment (R)” 0.902.
`GCUUCU`: “6-mer enrichment (R)” 0.897.
`GAGGUG`: “6-mer enrichment (R)” 1.36.
`ACAUUA` — result for “6-mer enrichment (R)”: 0.895.
Under “6-mer enrichment (R)”, `CACGAA` is recorded as 0.826.
For `CAACUC`, “6-mer enrichment (R)” read 0.831.
For `UCCCGC`, “6-mer enrichment (R)” read 0.945.
Under “6-mer enrichment (R)”, `GGGUCC` is recorded as 1.02.
Under “6-mer enrichment (R)”, `UUGAGG` is recorded as 1.15.
Under “6-mer enrichment (R)”, `GUCGAA` is recorded as 0.912.
`GGUUAC`: “6-mer enrichment (R)” 0.932.

Set 2 — method: RNA Bind-n-Seq; molecule type: RNA; sample: in vitro; tested at: 1 µM; setting: whole 134-nt RNA, ends assumed; added: 150 mM KCl; reference: input library; reading: higher = stronger binding
Target: Ras GTPase-activating protein-binding protein 1, C-terminal RGG region (G3BP1, Homo sapiens, UniProt Q13283)
Sequence of UniProt Q13283 (whole entry, looked up): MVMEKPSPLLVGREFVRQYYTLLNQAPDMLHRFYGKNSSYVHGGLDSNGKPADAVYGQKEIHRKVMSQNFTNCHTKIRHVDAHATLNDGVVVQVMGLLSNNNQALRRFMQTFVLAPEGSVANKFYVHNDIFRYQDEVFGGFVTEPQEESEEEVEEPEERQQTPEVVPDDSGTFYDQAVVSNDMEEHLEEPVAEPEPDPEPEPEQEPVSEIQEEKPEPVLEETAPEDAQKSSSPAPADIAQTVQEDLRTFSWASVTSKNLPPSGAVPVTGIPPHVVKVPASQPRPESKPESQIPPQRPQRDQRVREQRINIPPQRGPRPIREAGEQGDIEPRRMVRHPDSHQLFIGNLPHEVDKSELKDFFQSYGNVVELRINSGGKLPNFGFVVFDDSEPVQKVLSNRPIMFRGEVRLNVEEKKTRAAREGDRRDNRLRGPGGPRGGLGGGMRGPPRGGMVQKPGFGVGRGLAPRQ
`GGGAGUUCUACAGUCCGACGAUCUCCUGUGCUACACAUCGUAUGUACCGAAUCAAAUUUUUAAACCCCCAAACCCCCCCAAAAAAGUAUUAUGUUACGCCGUUCGGAUCUGCAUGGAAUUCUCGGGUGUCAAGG` has a log2 enrichment of -0.579.
With `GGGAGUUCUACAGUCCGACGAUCUGGGAGGUGGAUUUUGUUUAUUUUUUUAGCUCAUUUCCAGGGGUGGGAAUUUUUUUUUAAUAUGUGUGAUGAAUAAAGUUGUUUUUGAAAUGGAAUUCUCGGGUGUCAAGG` the log2 enrichment was 3.08.
For `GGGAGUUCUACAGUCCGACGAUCAGUCCUGUGCUACACAUCGUAUGUACCGAAUCAAAUUUUUAAAUUUAAACCCCCAAAAAAGUAUUAUGUUACGCCGUUCGGAUCUGCACUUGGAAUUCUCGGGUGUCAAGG`, the log2 enrichment was -1.13.
`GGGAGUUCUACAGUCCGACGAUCCCCAUGCAGGUGGGCAUCUUUGGGAAGUGGGGCAAGGGGGGGAUAGGGAGGGGGGUAACACUUUGGGAACAGGUGGUCCCAGGUCGUUUCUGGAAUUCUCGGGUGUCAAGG` has a log2 enrichment of -1.02.
The log2 enrichment of `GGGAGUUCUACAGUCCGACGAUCCCUGUGCUACACAUCGUAUGUACCGAAUCGGAAAAAAAGGAAAAAAAGGGGAAAAAAAGGAAAGUAUUAUGUUACGCCGUUCGGAUCUGCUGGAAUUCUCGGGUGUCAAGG` is reported as -1.77.
With `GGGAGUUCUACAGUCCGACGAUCUAACUUUAGAGGAGGAUCUGAUGGAUAUGGCAGUGGACGUGGAUUUGAGGAUGGCUAUAAUGGGUAUGGAGGAGGACCUGGAGGUGGCAAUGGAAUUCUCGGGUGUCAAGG` the log2 enrichment was -1.15.
With `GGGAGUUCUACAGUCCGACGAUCAAGUCCUGUGCUACACAUCGUAUGUACCGAAUCGGUUUGGAAAAAGGUUUUUUUGGAAAGUAUUAUGUUACGCCGUUCGGAUCUGCACUUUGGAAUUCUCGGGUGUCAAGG` the log2 enrichment was -2.12.
`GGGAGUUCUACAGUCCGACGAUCUCCUAGUCCUAGGAAAACUCCAGUUGCCAGUGAUCAACGCCGUAGGUCCUGCAAAACAGCCCCUGCUUCCAGCAGCAAAUCUCAGACAGAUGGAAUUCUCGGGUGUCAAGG` gave a log2 enrichment of -0.524.
With `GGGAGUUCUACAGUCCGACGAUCGCAGGAAGUAAAAACAAAUGGAAAUGCUUCGGAUAGUGGCAGGGGAAAGGGUUGCUAAGGAAAGGGUGGGAUGGGAGUGGGUAAAGAGUUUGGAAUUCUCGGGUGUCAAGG` the log2 enrichment was 1.32.
`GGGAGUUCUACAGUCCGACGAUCAAGUCCUGUGCUACACAUCGUAUGUACCGAAUCGGCCCCGGCCCCGGGGCCCCGGGGAAAGUAUUAUGUUACGCCGUUCGGAUCUGCACUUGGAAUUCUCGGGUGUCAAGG` gave a log2 enrichment of -2.11.

Set 3 — method: RNA Bind-n-Seq; molecule type: RNA; sample: in vitro; tested at: 365 nM; reference: no-protein control; reading: higher = stronger binding
Target: RNA binding protein fox-1 homolog 2, RRM domain, GST-SBP tag (RBFOX2, Homo sapiens, UniProt O43251-10, residues 100-194)
Setting: natural RNA segment, single round, ends assumed
Residues (chain): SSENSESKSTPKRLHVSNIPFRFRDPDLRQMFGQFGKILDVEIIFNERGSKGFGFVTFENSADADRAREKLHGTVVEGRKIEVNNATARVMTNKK
`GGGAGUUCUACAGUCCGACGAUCAGUGUAAAUCUACCAGUCAUGGGCCAGAAGGGCAAAAGCCCAGCUUUCUCUUUGGAAAGACUCAGGCUGUGGUUUGUUGAUGGCCAGGUUUUCCUCAGGCUCCAACAACUUGGAAUUCUCGGGUGCCAA`: “RBNS enrichment (R)” 0.284.
`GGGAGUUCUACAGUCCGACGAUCAGACUGCUCCAGCUGGGACAUCCAGUCCUCGCUGCUGUUGCUGCUAGUUCGAAGGAUGCCGCCGUGCUGUCUGUGGCCGCCCUCCCAUGUCCUGUCCCCUGUAGCUGCUUUGGAAUUCUCGGGUGCCAA`: “RBNS enrichment (R)” 0.427.
`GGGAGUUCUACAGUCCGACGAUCCUCCUUGUUCUGGGCUCCAGUUUUCCCAUUUGUGAGAUGAGGCAACUUCCAAUGCUUCUCUAGGCCCUGCACGUAAGUGAUUUUUCCAGUUCAAAGUCAAGACAGGUAAAUGGAAUUCUCGGGUGCCAA` — result for “RBNS enrichment (R)”: 0.364.
Under “RBNS enrichment (R)”, `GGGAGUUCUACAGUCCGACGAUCAUUUUGAUGAGAUAACCUUCAUCUCGUUACUGAAAUAUCUAACUUCAGCUAGAUAUGAGCUAUGCAAGGAGCCAUAGGAAUAGCUAUAUGUUGGAAUGGCUUUAAUGUUGUGGAAUUCUCGGGUGCCAA` is recorded as 1.62.
For `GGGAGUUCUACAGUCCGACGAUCAACCCAUUUUGAAUAUUAGCAUUGCCAAUAUCCUGUAUUCUUGUUUUACAUUUGGAUUAGAAAUUUAACAUAGUAAUUCUUAAGUCUUUUGUCUGAUUUUUAAAGUACUUUGGAAUUCUCGGGUGCCAA`, “RBNS enrichment (R)” read 1.16.
For `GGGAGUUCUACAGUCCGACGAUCGGGAAUCAGUGUACUGAUUAUGUUUUCAUCACCAGGCUGUGAGCAAUAUCUUGAGUUUGUAGCUUAGAAUUGGGAAGGCACUGAACAUCUGGAAGACAAGGUCAUUUCAUUGGAAUUCUCGGGUGCCAA`, “RBNS enrichment (R)” read 0.416.
`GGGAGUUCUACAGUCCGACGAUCGAGAGGACAGUUCUUAGUCCAAUAAAAAUAUGCAGAUUGUAUGUAAUGAAAUUUUGUAAGCACAGGUAAUUUCUGUCAGAUGUAUUCUUAAACUUUUUAAUAUGUUGGGAUGGAAUUCUCGGGUGCCAA` — result for “RBNS enrichment (R)”: 0.753.
For `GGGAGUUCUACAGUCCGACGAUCGGGGCCUCCUUGUCAGCUCUGCUGCUGUCUCAGAGCCAUCUGGAUGAGUGUCCCGACACCCUCUCGGAUGCAGGGCAGGACCACCCAGCUGGUCAGACUCUGAUGUUGGGUGGAAUUCUCGGGUGCCAA`, “RBNS enrichment (R)” read 0.329.
For `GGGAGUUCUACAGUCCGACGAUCGACCAGGGUGGCCUGCAGUGGUGCCUGGGUAGGGCCGCUCCUCUGGGGCCCUGUGCCCAGGCCCUGGGCUGGUUGCAGCCCAGCAGUGCCUCCUGCCCCUCCUGGAGUUCUGGAAUUCUCGGGUGCCAA`, “RBNS enrichment (R)” read 0.203.
`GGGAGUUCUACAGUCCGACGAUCGGGACUGAGACCCAGGCCUGGCAGGACCGUGCCUACAGAUACUGCAAACGUUCCUACAGCCUAGAGGUGCGUAUACACACCCAAGUACACGCAGCCAGGCAUUCAGGGGUUGGAAUUCUCGGGUGCCAA`: “RBNS enrichment (R)” 0.356.
`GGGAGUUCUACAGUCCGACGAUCGACCUAGCCAACAACAGCACCUCAAUCUGAUACACUCCCGAUGCCACAUUUUUAACUCCUCUCGCUCUGAUGGGACAUUUGUUACCCUUUUUUCAUAGUGAAAUUGUGUUUGGAAUUCUCGGGUGCCAA`: “RBNS enrichment (R)” 0.859.
For `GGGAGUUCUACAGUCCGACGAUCUAUUUAAAAAAAAGAAUCACCAAAUCUAUUUGAAAACAAGUCGAUUUGUAUUAUGCUGGAAUUUUUUGGGCUUUCAGAUUUCUCUUUUUAACCACAUUUCUGAAUGUAUAUGGAAUUCUCGGGUGCCAA`, “RBNS enrichment (R)” read 0.67.

Set 4 — method: protein-binding microarray; molecule type: double-stranded DNA, one strand shown; sample: in vitro; tested at: not given; reading: higher = stronger binding
Target: Transcription factor Sp1 (SP1, Homo sapiens, UniProt P08047, residues 1-785, full length assumed)
Sequence of UniProt P08047 (whole entry, looked up): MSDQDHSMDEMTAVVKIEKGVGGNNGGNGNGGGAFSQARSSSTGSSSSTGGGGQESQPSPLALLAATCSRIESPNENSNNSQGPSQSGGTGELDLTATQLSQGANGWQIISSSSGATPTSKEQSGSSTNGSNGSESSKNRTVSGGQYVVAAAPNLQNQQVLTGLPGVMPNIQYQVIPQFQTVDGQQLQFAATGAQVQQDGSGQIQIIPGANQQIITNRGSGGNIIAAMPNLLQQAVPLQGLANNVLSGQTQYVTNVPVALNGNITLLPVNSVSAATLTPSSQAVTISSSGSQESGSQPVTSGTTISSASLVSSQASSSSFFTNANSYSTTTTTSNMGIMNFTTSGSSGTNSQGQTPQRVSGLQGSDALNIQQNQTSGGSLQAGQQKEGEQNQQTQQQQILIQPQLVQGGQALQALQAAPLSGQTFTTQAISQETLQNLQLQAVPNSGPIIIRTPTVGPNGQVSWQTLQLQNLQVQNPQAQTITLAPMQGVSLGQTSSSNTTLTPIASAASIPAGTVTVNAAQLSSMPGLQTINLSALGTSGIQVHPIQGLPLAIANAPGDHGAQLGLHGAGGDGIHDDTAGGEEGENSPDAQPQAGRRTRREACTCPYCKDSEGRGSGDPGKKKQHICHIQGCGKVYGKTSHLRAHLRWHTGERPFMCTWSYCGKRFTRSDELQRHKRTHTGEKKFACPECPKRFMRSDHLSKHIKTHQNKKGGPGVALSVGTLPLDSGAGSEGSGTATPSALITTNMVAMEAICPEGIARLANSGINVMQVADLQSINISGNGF
Setting: k-mer, scored over probes, only values ≥0.25
`GGGAGGAA` gave an E-score of 0.286.
`GTTTCGTA` gave an E-score of 0.272.
`ACGCCCAC` has an E-score of 0.486.
`AGGGGGCG` gave an E-score of 0.485.
`GAACTGTA` has an E-score of 0.255.
For `AGATGGGG`, the E-score was 0.299.
The E-score of `ATTCATTC` is reported as 0.263.
For `GCCACCCC`, the E-score was 0.342.
For `ACGGGGAG`, the E-score was 0.271.
`AATGGTAA` gave an E-score of 0.276.
`GGGCGGGA` has an E-score of 0.483.
The E-score of `CAAGGGGA` is reported as 0.295.
`CCCACCCG` has an E-score of 0.423.
`CAATACAA` has an E-score of 0.302.
The E-score of `ATTCACAA` is reported as 0.301.
The E-score of `CCACGTTA` is reported as 0.265.
`ACATATCC` has an E-score of 0.251.

Set 5 — method: protein binding microarray; molecule type: double-stranded DNA, one strand shown; sample: in vitro; tested at: not given; reference: not given; reading: higher = stronger binding
Target: Histone acetyltransferase KAT6A, winged helix 1, GST fusion (KAT6A, Homo sapiens, UniProt Q92794, residues 1-85)
Setting: 8-mer, flanks averaged, mean of 2 arrays, mostly near background
Residues (chain): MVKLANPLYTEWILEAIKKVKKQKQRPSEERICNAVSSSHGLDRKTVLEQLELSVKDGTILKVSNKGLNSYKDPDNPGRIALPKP
The E-score of `CGGAGTCA` is reported as 0.197.
For `ACAAAGTA`, the E-score was -0.199.
With `ATACTATG` the E-score was -0.0443.
`CCTACTAG` has an E-score of -0.159.
The E-score of `AGCATGTA` is reported as -0.153.
`ATGGTAGA` gave an E-score of -0.141.
The E-score of `CCACGTGA` is reported as -0.116.
`ACCCCTGC` has an E-score of -0.183.
The E-score of `ATCGCCAA` is reported as 0.0274.
The E-score of `GATAGTTA` is reported as -0.0962.
With `CACGCGAC` the E-score was 0.151.
For `AAAGAATT`, the E-score was -0.103.
`CTTTGTTA` gave an E-score of -0.0278.
`AGGTTCAG` gave an E-score of -0.233.
`CCACGCCG` gave an E-score of 0.35.
`ACCCGGCG` gave an E-score of 0.441.
`AGTTTCGG` gave an E-score of 0.0224.
The E-score of `CTCCATAA` is reported as -0.221.
The E-score of `CCACAGTC` is reported as -0.294.
For `AAGGTCAC`, the E-score was 0.0636.
For `CTATTCAG`, the E-score was -0.186.
`CGGCGCTC` gave an E-score of 0.409.
`GTCAGAGA` has an E-score of -0.187.
With `GTGGGCGA` the E-score was -0.212.
`ACCCAAAC` gave an E-score of -0.227.

A few entries again (set 4):
The E-score of `ATTCATTC` is reported as 0.263.
For `GCCACCCC`, the E-score was 0.342.
For `ACGGGGAG`, the E-score was 0.271.
`AATGGTAA` gave an E-score of 0.276.
`GGGCGGGA` has an E-score of 0.483.
The E-score of `CAAGGGGA` is reported as 0.295.
`CCCACCCG` has an E-score of 0.423.
`CAATACAA` has an E-score of 0.302.
The E-score of `ATTCACAA` is reported as 0.301.
The E-score of `CCACGTTA` is reported as 0.265.
